Assay results collected from several papers.
Each line is one published result; not all experiments were run side by side. ± gives the spread as reported.
Method: steady-state kinetics
B1: sacB S173A/S422A (Priestia megaterium, UniProt D5DC07); chain KGNDSKDFNNSYGISHITRDNMVKIPQQQNSDQFKVPAFDESTIKNIASAKGKNASGNTIDLDVWDSWPLQNADGTVATYHGYQIVFALAGDPKDSNDTSVYLFYKKAGDKSIDSWKNAGRVFKDSDKFVPNDPHLKNQTQEWAGSGTLTKDGKVRLFYTDYSGKQYGKQTLTTAQVNMSQPNDNTLKVDGVEDYKSIFDGDGKIYQTVQQFIDEGGYDTGDNHTLRDPHYIEDNGHKYLVFEANTGTEDGYQGEDSLYNRAYYGGNNPFFQSEKKKLLEGSNKEKASLANGALGIIELNDDYTLKKVMKPLITSNTVTDEIERANIFKKDGKWYLFTDSRGSKMTIDGIGQDDVYMLGYVSNTLTGKYKPLNDTGLVLHMDLDPNDKTFTYAHFAVPQTKGDNVVITSYMTNRGFYEDNHSTFAPSFLVNIDGSKTSVVKDRVLEQGQLTVDED
B2: enzyme (Mortierella alpina, UniProt U5Y3C6); chain MAPPNTIDAGLTQRHISTSAPNSAKPAFERNYQLPEFTIKEIRECIPAHCFERSGLRGLCHVAIDLTWASLLFLAATQIDKFENPLIRYLAWPVYWIMQGIVCTGVWVLAHECGHQSFSTSKTLNNTVGWILHSMLLVPYHSWRISHSKHHKATGHMTKDQVFVPKTRSQVGLPPKENAAAAVQEEDMSVHLDEEAPIVTLFWMVIQFLFGWPAYLIMNASGQDYGRWTSHFHTYSPIFEPRNFFDIIISDLGVLAALGALIYASMQLSLLTVTKYYIVPYLFVNFWLVLITFLQHTDPKLPHYREGAWNFQRGALCTVDRSFGKFLDHMFHGIVHTHVAHHLFSQMPFYHAEEATYHLKKLLGEYYVYDPSPIVVAVWRSFRECRFVEDQGDVVFFKK
B3: protein (Actinidia deliciosa, UniProt C7SHN9); chain MEPLLFSIQTLVHQVKQEIFSSTFDLYSFVSPSAYDTAWLAMIPHPKQNSCPKFKGCLDWILDNQKEAGYWGECDHDGLPTIDSLPATLACMVALKTWGVSEKHINKGLAFIHANSTTLLKEKYDHLPRWFVIVFPAMVEVAQAAGLKVLFSNGLEEVVLNISLEREKILEREEFVDKYHYPPLASYLEALPPSYTIDRKDITMNLSGDGSCFQSPSATARAFLATGNQKCMAYLESLVQKRPGGVPTMYPMDGELVSLCLVNQIQRLGLAEHFTEEIEENLKLIYENYKNQESREMKDSYLVPTKIYKDSLAFRLLRMHGYNVTPRRFCWFLYQEDIRVHIEKNYECFTSALYNVYRATDLMFSGEYELEEARVFSRKLLEKSMKLKSLNDNLVNFPSFRSVIDHELSVPWIARLEHLDHRMWIEENKVDTLWIGKASFYRLRALNDKLMTLAVESYKFRQSFYRNELEELKRWSKDWGLTDLGFGRKKTTYCYYAIAASSSLPHNSMVRLIVAKSAILVTIADDFFDMEGSLEDLQSLTQAVQRWDGNSLSGHGKIIFCALDNLVSDIAKPHLHLEGSHVAENVKNMWSETIASWLTETTWSHTGYVPSLDEYLQTGKISVASQLMTVPALCFLSPNVHPICKLEANHYQIITKLLMVSTRLLNDTQTYEKELKDGKRNFVILHSKGSPQTGIEKSVAFVKEILDQIEKEFLEHTLMDGHNDLPKPCKHLHLSILRAFHMFYNSGDLFDSDTGLLHDINKAFYVPL
B4: enzyme (Halalkalibacterium halodurans, UniProt Q9KCN8); chain MLNVTQLQEATTFIQQQIETKPTIGLILGSGLGILADEIEQPVKVPYSDIPHFPVSTVQGHAGQLVIGMLEGKQVIAMQGRFHFYEGYSLEVVTFPVRVMKALGVEQIIVTNAAGGVNESFEAGDLMIIRDHINNMAQNPLIGPNDEAFGVRFPDMSNAYSERLRTLAKEKGNTLNLKLQEGVYVANTGPVYETPAEVRMIRKLGGDAVGMSTVPEVIVARHAGLEVLGISCISNMAAGILPQPLSHDEVIETTERVRQDFLNLVKAIVKDM
B5: trypsin (Saccharopolyspora erythraea, UniProt Q54137); chain IVGGEDANVQDHPFTVALVTPDGQQFCGGTLAAPNKVVTAAHCTVGSQPADINVVSGRTVMSSNEGTVSKVTNVWVHPEYQDAAKGFDVSVLTLEAPVKEAPIELAKADDAGYAPDTAATILGWGNTSEGGQQADHLQKATVPVNSDDTCKQAYGEYTPDAMVCAGVPEGGVDTCQGDSGGPMVVNNKLIGVTSWGEGCARPGKPGVYARVGAYYDVLMEQINAGAVSAR
B6: protein (Sinorhizobium meliloti, UniProt Q92WA3); chain MVAPRILVTGGAGYIGSHTAKLLRLEGIEPVVYDNLTTGNRSAVRWGPFVQGDILDGRRLIEVIEAHQPDAVIHFAASAYVGESVADPAKYYNNNVRGTLSLLDACRQTGVDKVIFSSSCATYGVPAVLPIDEATPQAPINPYGKTKLVAEHMLADYAAAFALNYVSLRYFNACGADPEGDLGEWHDPETHLIPRALMAAAGRIPHLEIFGEDYDTPDGTCVRDYIHVADLASAHVLAYRHLAKGGGNVALNLGTGRGFSIKEVLRTIGEITGHDVPVVFRRRRAGDPPALYADAGLACRTLGFLPRYSDLETIVRTAAPFFGLEVRS
B7: enzyme (Triticum aestivum, UniProt A0A6J4BJH4); chain MPSTESAAGVAWDRRRELQAFDDTKAGVKGLVDAGVTALPPIFRHSPESLESITSSNHVAGAIPTVDLAAPRREDAVALVRHAARTVGFFQVVNHGVPAELMAGMLEGVRRFNEGPAEAKQAIYSRDQARKVRFASNFDLFSSAAANWRDTLFFHLAPDPAPSEELPEAVRDVVTEYGHAVTKVGLSVLELLSESLGLSSDHLRDMDCAENLNAVCQYYPPCPEPYLTWGTKRHTDPGFLTVLLQDGMGGLQVLVDGKTWVDVPPVPGAFIINIGDLLQLVSNDQFRSVEHRVLANKSKDTARVSVASFFNTNIERSTRLYGPITDGRNPPIYRSVTAREFIATFNRIGLDGRSLDQYRLDRDTPTPAVEGCE
B8: protein (UniProt A0A4Y6I1D9); chain MTLDEKPRKFDGLDIEGVAFAASVTALGAAKPLALGGAGDRGLEINGNYIKFTAIGIYVEDGIIPHLSPKLRGKTVEELCEKELLFEEVISAPFEKLVRVVFLVPLTGIQYSEKVLERISVQSLFTDIKEEHKQQFLEIFKGESFPPRSSVILSFSKEGLKVAFAKGDDVPSKAVGTIEDATFADAVLATIIWKEGVSPAAKVSLAERLSKCL
B9: ycjR (Escherichia coli, UniProt P76044); chain MKIGTQNQAFFPENILEKFRYIKEMGFDGFEIDGKLLVNNIEEVKAAIKETGLPVTTACGGYDGWIGDFIEERRLNGLKQIERILEALAEVGGKGIVVPAAWGMFTFRLPPMTSPRSLDGDRKMVSDSLRVLEQVAARTGTVVYLEPLNRYQDHMINTLADARRYIVENDLKHVQIIGDFYHMNIEEDNLAQALHDNRDLLGHVHIADNHRYQPGSGTLDFHALFEQLRADNYQGYVVYEGRIRAEDPAQAYRDSLAWLRTC
B10: Nudt8 (Mus musculus, UniProt Q9CR24); chain MLPDGLSAEDEQRCRQLLARTTARLRSRPAAAAVLVPLCLVRGVPALLYTLRSSRLVGRHKGEVSFPGGKCDPDDQDVIHTALRETQEELGLEVPKEHVWGVLQPVYDREKATIVPVLANVGPLDLQSLRPNLEEVDEVFEMSLAHLLQTQNQGYTHFCQGGHFSYTLPVFLHGPHRVWGLTAVITELTLKLLAPGFYQPSLAVPELPRG
B11: enzyme A178R/D177A/G159A/M179S/P184R (Levilactobacillus brevis, UniProt Q03Q85); chain MKVTVVGCTHAGTFAIKQILAEHPDAEVTVYERNDVISFLSCGIALYLGGKVADPQGLFYSSPEELQKLGANVQMNHNVLAIDPDQKTVTVEDLTNHAQTTESYDKLVMTSGSWPIVPKIPGIDSDRVKLCKNWAHAQALIEDAKEAKRITVIGAGYIAAELAEAYSTTGHDVTLIARSARVMRKYFDADFTDVIEQDYRDHGVQLALGETVESFTDSATGLTIKTDKNSYETDLAILCIGFRPNTDLLKGKVDMAPNGAIITDDYMRSSNPDIFAAGDSAAVHYNPTHQNAYIPLATNAVRQGILVGKNLVKPTVKYMGTQSSSGLALYDRTIVSTGLTLAAAKQQGLNAEQVIVEDNYRPEFMPSTEPVLMSLVFDPDTHRILGGALMSKYDVSQSANTLSVCIQNENTIDDLAMVDMLFQPNFDRPFNYLNILAQAAQAKVAQSVNA
UniProt Q99042, sequence (whole entry, looked up): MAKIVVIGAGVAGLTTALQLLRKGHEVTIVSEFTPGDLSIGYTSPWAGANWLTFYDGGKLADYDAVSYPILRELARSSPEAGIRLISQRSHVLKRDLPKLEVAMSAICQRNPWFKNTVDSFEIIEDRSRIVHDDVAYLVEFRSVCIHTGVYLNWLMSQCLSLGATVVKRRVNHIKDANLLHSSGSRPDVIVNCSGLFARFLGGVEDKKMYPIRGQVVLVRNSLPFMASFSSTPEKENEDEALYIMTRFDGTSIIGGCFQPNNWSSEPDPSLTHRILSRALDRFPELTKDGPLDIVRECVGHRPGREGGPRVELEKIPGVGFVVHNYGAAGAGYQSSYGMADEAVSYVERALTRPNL
UniProt P0AFG3, sequence (whole entry, looked up): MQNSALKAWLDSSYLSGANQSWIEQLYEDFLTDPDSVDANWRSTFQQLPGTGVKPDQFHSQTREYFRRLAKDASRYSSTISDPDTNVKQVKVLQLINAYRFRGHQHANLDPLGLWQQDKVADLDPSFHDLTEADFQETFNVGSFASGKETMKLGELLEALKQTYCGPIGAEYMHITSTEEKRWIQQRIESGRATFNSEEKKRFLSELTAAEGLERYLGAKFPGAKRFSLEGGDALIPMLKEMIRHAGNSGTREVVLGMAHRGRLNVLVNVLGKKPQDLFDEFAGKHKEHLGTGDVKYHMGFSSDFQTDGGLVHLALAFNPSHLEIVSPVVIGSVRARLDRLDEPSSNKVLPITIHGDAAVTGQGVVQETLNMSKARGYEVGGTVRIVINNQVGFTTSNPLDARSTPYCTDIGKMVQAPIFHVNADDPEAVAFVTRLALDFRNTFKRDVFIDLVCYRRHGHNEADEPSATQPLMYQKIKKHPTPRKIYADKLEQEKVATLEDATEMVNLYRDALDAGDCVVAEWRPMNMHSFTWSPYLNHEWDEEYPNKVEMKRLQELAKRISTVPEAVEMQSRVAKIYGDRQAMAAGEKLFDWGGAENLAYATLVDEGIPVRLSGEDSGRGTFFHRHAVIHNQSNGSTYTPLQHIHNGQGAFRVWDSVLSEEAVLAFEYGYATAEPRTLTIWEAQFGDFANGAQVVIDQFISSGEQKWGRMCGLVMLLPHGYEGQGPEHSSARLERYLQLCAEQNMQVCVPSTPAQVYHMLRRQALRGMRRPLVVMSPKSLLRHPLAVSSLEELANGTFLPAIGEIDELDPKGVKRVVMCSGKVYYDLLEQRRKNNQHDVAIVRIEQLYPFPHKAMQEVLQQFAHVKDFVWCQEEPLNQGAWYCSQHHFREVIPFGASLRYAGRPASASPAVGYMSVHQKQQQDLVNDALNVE
UniProt Q29437, sequence (whole entry, looked up): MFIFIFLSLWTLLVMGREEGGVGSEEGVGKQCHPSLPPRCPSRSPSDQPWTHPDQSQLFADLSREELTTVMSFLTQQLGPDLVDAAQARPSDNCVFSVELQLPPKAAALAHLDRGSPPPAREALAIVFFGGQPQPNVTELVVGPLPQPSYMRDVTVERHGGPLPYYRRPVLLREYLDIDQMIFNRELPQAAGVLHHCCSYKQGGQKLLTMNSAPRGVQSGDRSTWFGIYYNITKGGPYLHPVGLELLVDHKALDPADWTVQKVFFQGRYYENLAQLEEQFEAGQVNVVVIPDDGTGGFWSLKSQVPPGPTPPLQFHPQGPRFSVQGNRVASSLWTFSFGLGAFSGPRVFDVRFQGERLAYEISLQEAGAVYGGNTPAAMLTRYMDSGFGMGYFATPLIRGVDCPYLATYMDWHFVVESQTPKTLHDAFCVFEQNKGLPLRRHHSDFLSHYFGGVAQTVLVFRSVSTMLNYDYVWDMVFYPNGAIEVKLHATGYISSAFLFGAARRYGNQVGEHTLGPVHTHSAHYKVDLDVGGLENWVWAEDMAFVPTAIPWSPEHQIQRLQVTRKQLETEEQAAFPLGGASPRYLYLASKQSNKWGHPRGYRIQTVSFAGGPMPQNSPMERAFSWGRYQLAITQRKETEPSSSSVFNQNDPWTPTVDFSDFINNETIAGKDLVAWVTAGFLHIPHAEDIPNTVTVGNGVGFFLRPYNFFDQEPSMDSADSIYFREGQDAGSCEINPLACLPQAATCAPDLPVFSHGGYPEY
UniProt A1ZAW0, sequence (whole entry, looked up): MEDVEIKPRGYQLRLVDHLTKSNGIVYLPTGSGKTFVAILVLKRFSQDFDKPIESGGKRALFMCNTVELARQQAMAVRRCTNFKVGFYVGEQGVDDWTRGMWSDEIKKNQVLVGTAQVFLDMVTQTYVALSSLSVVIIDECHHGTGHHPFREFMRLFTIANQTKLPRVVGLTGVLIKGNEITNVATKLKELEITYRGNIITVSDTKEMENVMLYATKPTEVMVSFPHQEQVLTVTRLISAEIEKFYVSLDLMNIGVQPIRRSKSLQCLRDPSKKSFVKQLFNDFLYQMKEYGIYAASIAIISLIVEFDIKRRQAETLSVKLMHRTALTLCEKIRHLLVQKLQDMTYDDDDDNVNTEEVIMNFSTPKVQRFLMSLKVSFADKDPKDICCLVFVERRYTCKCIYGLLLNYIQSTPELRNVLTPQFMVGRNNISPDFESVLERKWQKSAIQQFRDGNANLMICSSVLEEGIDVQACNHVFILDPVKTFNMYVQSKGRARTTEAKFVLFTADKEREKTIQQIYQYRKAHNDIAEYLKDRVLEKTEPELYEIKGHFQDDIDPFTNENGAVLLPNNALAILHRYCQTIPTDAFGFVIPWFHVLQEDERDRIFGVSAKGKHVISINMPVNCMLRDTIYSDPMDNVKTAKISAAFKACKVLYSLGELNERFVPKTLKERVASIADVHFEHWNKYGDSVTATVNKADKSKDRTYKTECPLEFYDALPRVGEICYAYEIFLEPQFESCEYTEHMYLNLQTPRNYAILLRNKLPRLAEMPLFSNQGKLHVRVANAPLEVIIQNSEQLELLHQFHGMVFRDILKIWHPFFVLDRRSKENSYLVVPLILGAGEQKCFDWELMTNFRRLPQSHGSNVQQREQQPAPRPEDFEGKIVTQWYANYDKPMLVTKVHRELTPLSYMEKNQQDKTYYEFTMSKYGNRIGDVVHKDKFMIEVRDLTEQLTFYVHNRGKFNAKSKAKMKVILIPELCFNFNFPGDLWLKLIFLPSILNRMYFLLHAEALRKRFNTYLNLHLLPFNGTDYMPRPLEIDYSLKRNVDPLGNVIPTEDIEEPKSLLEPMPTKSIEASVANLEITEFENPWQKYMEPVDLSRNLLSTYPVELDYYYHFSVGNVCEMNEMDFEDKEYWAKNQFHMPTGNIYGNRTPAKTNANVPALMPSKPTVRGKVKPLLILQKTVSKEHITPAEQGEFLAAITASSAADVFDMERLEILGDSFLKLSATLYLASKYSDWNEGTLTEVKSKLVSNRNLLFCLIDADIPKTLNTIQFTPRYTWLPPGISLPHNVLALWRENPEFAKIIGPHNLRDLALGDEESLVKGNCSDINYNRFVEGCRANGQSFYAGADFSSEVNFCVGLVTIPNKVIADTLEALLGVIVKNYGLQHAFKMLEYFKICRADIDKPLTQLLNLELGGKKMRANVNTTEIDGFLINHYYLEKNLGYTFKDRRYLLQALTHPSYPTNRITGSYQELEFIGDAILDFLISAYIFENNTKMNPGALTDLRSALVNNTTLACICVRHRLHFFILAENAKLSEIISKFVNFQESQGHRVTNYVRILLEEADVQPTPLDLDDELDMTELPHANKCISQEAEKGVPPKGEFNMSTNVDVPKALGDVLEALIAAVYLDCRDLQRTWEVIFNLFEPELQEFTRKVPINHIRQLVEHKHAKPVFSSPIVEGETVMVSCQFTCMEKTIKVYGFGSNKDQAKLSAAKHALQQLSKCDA

Substance = B1 (sacB S173A/S422A); substrate = OC[C@H]1O[C@@](CO)(O[C@H]2O[C@H](CO)[C@@H](O)[C@H](O)[C@H]2O)[C@@H](O)[C@@H]1O; pH = pH 6.6; kcat/Km = 350 M⁻¹ s⁻¹
Substance = Plasma amine oxidase (Bos taurus, UniProt Q29437); substrate = CN(C)CCOc1ccc2cc(CN)ccc2c1; pH = pH 7.2; temperature = 30 °C; kcat/Km = 2.16e+06 M⁻¹ s⁻¹
Substance = B2 (enzyme); substrate = CCCCCCCC/C=C\CCCCCCCC(=O)SCCNC(=O)CCNC(=O)[C@H](O)C(C)(C)COP(=O)(O)OP(=O)(O)OC[C@H]1O[C@@H](n2cnc3c(N)ncnc32)[C@H](O)[C@@H]1OP(=O)(O)O; pH = pH 7.5; temperature = 28 °C; kcat/Km = 2670 M⁻¹ s⁻¹
Substance = B3 (protein); substrate = CC(C)=CCC/C(C)=C/CC/C(C)=C/CO[P@@](=O)(O)OP(=O)(O)O; pH = pH 7.5; with = FPP 1-100 µM; kcat/Km = 51000 ± 9600 M⁻¹ s⁻¹
Substance = B4 (enzyme); substrate = Nc1nc2c(ncn2[C@@H]2O[C@H](CO)[C@@H](O)[C@H]2O)c(=O)[nH]1; pH = pH 8; kcat/Km = 58700 M⁻¹ s⁻¹
Substance = B5 (trypsin); substrate = N=C(N)NCCC[C@H](NC(=O)c1ccccc1)C(=O)Nc1ccc([N+](=O)[O-])cc1; pH = pH 8; temperature = 25 °C; kcat/Km = 5730 ± 520 M⁻¹ s⁻¹
Substance = B6 (protein); substrate = O=c1ccn([C@@H]2O[C@H](COP(=O)(O)OP(=O)(O)O[C@H]3OC[C@@H](O)[C@H](O)[C@H]3O)[C@@H](O)[C@H]2O)c(=O)[nH]1; pH = pH 7.6; temperature = 37 °C; with = NAD+ 1 mM; kcat/Km = 42100 ± 1700 M⁻¹ s⁻¹
Substance = protein (Cecembia lonarensis, UniProt K1KZY4); substrate = O=[N+]([O-])c1ccc(O[C@@H]2OC[C@H](O)[C@@H](O)[C@@H]2O)cc1; pH = pH 5.5; temperature = 35 °C; setting = substrate inhibition; kcat/Km = 232 ± 24 M⁻¹ s⁻¹
Substance = DAO1 (Trigonopsis variabilis, UniProt Q99042); substrate = Nc1ccc2nc3ccc(N)cc3[s+]c2c1; pH = pH 8; temperature = 22 °C; setting = apparent; kcat/Km = 5000 M⁻¹ s⁻¹
Substance = B7 (enzyme); substrate = O=C1[C@@H](O[C@@H]2O[C@H](CO)[C@@H](O)[C@H](O)[C@H]2O)Oc2ccccc2N1O; pH = pH 7.2; temperature = 30 °C; kcat/Km = 1860 M⁻¹ s⁻¹
Substance = B8 (protein); substrate = O=C(/C=C/c1ccc(O)cc1)c1c(O)cc(O)cc1O; kcat/Km = 1.61e+06 M⁻¹ s⁻¹
Substance = Dcr-2 (Drosophila melanogaster, UniProt A1ZAW0); substrate = Nc1ncnc2c1ncn2[C@@H]1O[C@H](COP(=O)(O)OP(=O)(O)OP(=O)(O)O)[C@@H](O)[C@H]1O; pH = pH 7.4; temperature = 25 °C; with = dsRNA, magnesium acetate 3.3 mM; kcat/Km = 117000 ± 33300 M⁻¹ s⁻¹
Substance = B9 (ycjR); substrate = CO[C@H]1O[C@H](CO)[C@@H](O)C(=O)[C@H]1O; pH = pH 8; temperature = 30 °C; with = MnCl2 0.5 mM, NADH 0.3 mM; kcat/Km = 520 ± 77 M⁻¹ s⁻¹
Substance = B10 (Nudt8); substrate = CC(=O)SCCNC(=O)CCNC(=O)[C@H](O)C(C)(C)COP(=O)(O)OP(=O)(O)OC[C@H]1O[C@@H](n2cnc3c(N)ncnc32)[C@H](O)[C@@H]1OP(=O)(O)O; pH = pH 8.5; with = 2 mM Mn2+; kcat/Km = 2670 M⁻¹ s⁻¹
Substance = B11; substrate = NC(=O)C1=CN([C@@H]2O[C@H](COP(=O)(O)OP(=O)(O)OC[C@H]3O[C@@H](n4cnc5c(N)ncnc54)[C@H](OP(=O)(O)O)[C@@H]3O)[C@@H](O)[C@H]2O)C=CC1; pH = pH 7.5; temperature = 37 °C; setting = per site; kcat/Km = 1.2e+07 ± 3e+06 M⁻¹ s⁻¹
Substance = AphC (Rhodococcus jostii, UniProt Q0S9X1); substrate = CCc1ccc(O)c(O)c1; pH = pH 8; temperature = 25 °C; setting = apparent; with = O2; kcat/Km = 206000 M⁻¹ s⁻¹
Substance = protein (Sinorhizobium meliloti, UniProt Q92T34); substrate = O=CC(=O)O; pH = pH 7.5; temperature = 25 °C; setting = NaCl 150 mM; with = NADPH 0.4 mM; kcat/Km = 1720 ± 34 M⁻¹ s⁻¹
Substance = sucA (Escherichia coli, UniProt P0AFG3); substrate = O=C(O)C(=O)CO; pH = pH 6.8; temperature = 37 °C; kcat/Km = 19.3 ± 1.9 M⁻¹ s⁻¹
